Measurements gathered from unrelated publications.
Every numbered part comes from another study and shows a few of its results, in no order. Positions count from the first letter of the parent shown.
Sequence of UniProt P29376 (whole entry, looked up): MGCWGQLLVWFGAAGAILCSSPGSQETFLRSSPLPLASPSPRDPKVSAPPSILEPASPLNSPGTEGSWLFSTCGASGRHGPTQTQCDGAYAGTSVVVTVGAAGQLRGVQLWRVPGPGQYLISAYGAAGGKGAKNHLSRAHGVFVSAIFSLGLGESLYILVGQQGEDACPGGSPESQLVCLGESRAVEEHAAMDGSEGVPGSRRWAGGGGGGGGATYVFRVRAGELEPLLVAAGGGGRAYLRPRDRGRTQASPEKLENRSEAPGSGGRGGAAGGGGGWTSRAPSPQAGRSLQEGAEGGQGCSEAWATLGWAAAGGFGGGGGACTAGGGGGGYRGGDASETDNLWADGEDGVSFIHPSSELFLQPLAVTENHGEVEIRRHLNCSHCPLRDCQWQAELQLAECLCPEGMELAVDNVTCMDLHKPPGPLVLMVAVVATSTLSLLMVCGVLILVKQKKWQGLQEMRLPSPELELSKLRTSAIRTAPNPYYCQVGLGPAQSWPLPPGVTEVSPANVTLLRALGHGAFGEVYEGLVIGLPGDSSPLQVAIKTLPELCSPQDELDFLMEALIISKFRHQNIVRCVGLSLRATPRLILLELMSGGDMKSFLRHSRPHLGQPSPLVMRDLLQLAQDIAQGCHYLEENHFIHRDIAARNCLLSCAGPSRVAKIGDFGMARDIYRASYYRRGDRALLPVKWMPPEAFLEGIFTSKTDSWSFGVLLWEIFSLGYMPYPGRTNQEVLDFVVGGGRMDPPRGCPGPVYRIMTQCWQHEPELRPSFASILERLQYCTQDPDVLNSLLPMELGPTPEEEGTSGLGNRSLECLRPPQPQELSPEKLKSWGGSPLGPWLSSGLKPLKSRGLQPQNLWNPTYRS

Study 1
Target: Centromere-binding protein 1, full length, His-tagged (CBF1, Saccharomyces cerevisiae, UniProt P17106, residues 1-351)
Sequence of UniProt P17106 (whole entry, looked up): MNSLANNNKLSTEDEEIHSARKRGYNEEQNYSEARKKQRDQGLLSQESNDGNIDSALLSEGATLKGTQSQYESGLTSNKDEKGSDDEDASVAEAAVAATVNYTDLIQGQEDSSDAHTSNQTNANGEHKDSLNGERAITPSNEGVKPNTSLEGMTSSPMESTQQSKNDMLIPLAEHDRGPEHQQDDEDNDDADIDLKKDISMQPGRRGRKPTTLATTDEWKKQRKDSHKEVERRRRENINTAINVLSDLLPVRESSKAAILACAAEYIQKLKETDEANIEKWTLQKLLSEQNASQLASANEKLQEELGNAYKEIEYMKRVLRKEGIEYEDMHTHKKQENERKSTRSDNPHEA
Technique: competition protein-binding microarray
Form: double-stranded DNA, one strand shown
Sample: in vitro
Tested at: 2 µM
Setting: whole 60-bp probe, lowest competitor level
Together with: Pho4 competitor, 0.05 µM
Reading: higher = stronger binding
Oligonucleotide	fluorescence intensity [a.u.]
TACTTACCCTACCACCACATGCCGTATCCACCCTCAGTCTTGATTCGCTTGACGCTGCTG	50.3
CATACCCAACCTTGGCACGTGTTTTAAGATATTTGTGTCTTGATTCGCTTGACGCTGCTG	2540
GGTAAGAAGGTCGCTAGCATGACGCCAGCTCCAAAAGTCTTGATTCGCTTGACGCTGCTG	58.1
CATACCCAACCTTGTAAGGTGGGTGAAGATATTTGTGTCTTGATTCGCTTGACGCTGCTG	73.1
GAACCAGAGATGTTCCACGTGAAATATTACCAACCAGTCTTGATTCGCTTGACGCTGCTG	776
GGTACGGCAACTCAATCCGTGCCAGCTTCGGAAGCCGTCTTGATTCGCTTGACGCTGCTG	60.5
ACTACGAATTTTTCATTCGTGACTCGAAAAACCTAGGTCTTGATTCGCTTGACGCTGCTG	170
TAGAGCAAGAACTAGTTCGTGCCGAAGCTGAATCTTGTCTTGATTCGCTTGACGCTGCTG	56.9

Study 2
Target: ABI1, truncated, D143A, DHFR fusion (Arabidopsis thaliana)
Technique: DHFR PCA, deep sequencing
Sample: yeast
Setting: methotrexate growth selection, single substitutions
Together with: (+)-ABA 0.032 µM
Reference: wild-type fitted maximum
Reading: higher = stronger binding
Starting sequence: PYL1, truncated, DHFR fusion (Arabidopsis thaliana); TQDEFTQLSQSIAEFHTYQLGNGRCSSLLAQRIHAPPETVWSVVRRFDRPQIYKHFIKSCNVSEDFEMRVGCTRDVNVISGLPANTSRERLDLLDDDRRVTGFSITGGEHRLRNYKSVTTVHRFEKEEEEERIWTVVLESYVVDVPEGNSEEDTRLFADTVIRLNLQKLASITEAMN; partner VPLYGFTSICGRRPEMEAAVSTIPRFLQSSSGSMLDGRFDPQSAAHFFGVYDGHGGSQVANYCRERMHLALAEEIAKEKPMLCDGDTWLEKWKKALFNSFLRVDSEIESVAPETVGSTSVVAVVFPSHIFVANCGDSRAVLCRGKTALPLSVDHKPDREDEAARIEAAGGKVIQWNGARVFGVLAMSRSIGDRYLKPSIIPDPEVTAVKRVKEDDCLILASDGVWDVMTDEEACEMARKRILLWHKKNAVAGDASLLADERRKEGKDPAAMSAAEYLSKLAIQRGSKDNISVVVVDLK
Change	relative binding score [%]
V78E	-4.11
L91P	-6.06
V161Q	39.9
N77A	39.1
A170R	19.6
K58A	9.07
M176A	9.96
G102I	9.28

Other studies, line by line
P1: viral docking peptide; CKVKRKLFGSENI; partner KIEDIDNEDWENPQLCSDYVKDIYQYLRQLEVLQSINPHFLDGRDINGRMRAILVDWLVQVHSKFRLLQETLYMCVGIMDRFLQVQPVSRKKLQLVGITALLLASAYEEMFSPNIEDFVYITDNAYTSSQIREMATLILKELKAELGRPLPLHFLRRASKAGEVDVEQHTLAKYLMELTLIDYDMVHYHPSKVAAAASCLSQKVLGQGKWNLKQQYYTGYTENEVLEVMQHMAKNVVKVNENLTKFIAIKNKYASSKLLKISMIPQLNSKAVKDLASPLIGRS
Substance	target	assay	test system	conditions	scale	measurement	value
P1 G9A	CCNB2, cyclin fold, Cln2 fusion (human)	yeast growth competition, sequencing	yeast	weak parent motif	reference: not given, higher = stronger binding	normalised enrichment score	0.529
CC(C)[C@H](CO)Nc1nc(Nc2cc(N)cc(Cl)c2)c2ncn(C(C)C)c2n1	LTK (Homo sapiens, UniProt P29376)	enzyme activity, inhibitor, radiometric	–	0.5 µM	–	remaining activity	103%

A few entries again (other studies, line by line):
Substance	target	assay	test system	conditions	scale	measurement	value
P1 G9A	CCNB2, cyclin fold, Cln2 fusion (human)	yeast growth competition, sequencing	yeast	weak parent motif	reference: not given, higher = stronger binding	normalised enrichment score	0.529
CC(C)[C@H](CO)Nc1nc(Nc2cc(N)cc(Cl)c2)c2ncn(C(C)C)c2n1	LTK (Homo sapiens, UniProt P29376)	enzyme activity, inhibitor, radiometric	–	0.5 µM	–	remaining activity	103%
